Experimental data from different studies.
Compare with care: the assays were run in different laboratories. ± gives the spread as reported.
OPG122: mRNA-decapping protein OPG122 (OPG122, Vaccinia virus, UniProt P04312)
rep papain-like protease: Replicase polyprotein 1ab, papain-like protease (rep, Severe acute respiratory syndrome coronavirus 2, UniProt P0DTD1)
Botulinum neurotoxin type A protease: Botulinum neurotoxin type A, protease (Clostridium botulinum, UniProt P0DPI0)
Lethal factor: Lethal factor (Bacillus anthracis, UniProt P15917)

Compound | target | observed | action | technique | cell line | Ki
Nc1nc2c(nc(Br)n2C2OC(COP(=O)(O)OP(=O)(O)OP(=O)(O)O)C(O)C2O)c(=O)[nH]1 (centres unmarked) | OPG122 |  |  |  |  | > 800 nM
O=C(N[C@@H](Cc1ccccc1)C(=O)CCl)OCc1ccccc1 | Replicase polyprotein 1ab, main protease (rep, Severe acute respiratory syndrome-related coronavirus, UniProt P0C6X7) | enzyme activity | inhibitor |  |  | 306 nM
Cc1ccc(OCCN(C)C)cc1C(=O)N[C@H](C)c1cc(-c2cnn(C)c2)cc(-c2cnn(C)c2)c1 | rep papain-like protease | enzyme activity | inhibitor | FRET |  | 34.3 nM
Nc1nc2c(ncn2C2CC(O)C(COP(=O)(O)OP(=O)(O)OP(=O)(O)O)O2)c(=O)[nH]1 (centres unmarked) | OPG122 |  |  |  |  | 110 nM
CC[C@H](C)[C@@H]1NC(=O)[C@@H](NC(=O)[C@H](CO)NC(=O)[C@@H](N)CCCNC(=N)N)CSSC[C@@H](C(=O)O)NC(=O)[C@H]([C@@H](C)O)NC(=O)CNC(=O)[C@@H]2CSSC[C@@H]3NC(=O)[C@H](CCC(N)=O)NC(=O)[C@H](Cc4ccccc4)NC(=O)[C@H](C)NC(=O)[C@H]([C@@H](C)O)NC(=O)[C@H](CSSC[C@H](NC(=O)[C@H](Cc4ccccc4)NC(=O)[C@H](CO)NC(=O)[C@H](CC(C)C)NC(=O)[C@H](CCC(N)=O)NC(=O)[C@H](Cc4ccc(O)cc4)NC(=O)[C@H](CCCCN)NC(=O)[C@H](CCSC)NC(=O)[C@H](CO)NC(=O)[C@H](Cc4c[nH]cn4)NC(=O)[C@H](CCCCN)NC3=O)C(=O)N[C@@H](CCCNC(=N)N)C(=O)N[C@@H](CCCCN)C(=O)N[C@@H]([C@@H](C)O)C(=O)N2)NC(=O)[C@H](CCCNC(=N)N)NC(=O)[C@H](CO)NC(=O)[C@H](CCCCN)NC(=O)[C@@H]2CCCN2C(=O)[C@H]([C@@H](C)CC)NC(=O)[C@H]([C@@H](C)O)NC(=O)[C@H](CC(=O)O)NC1=O | Potassium voltage-gated channel subfamily A member 3 (KCNA3, Homo sapiens, UniProt P22001) | potassium current | inhibitor | two-electrode voltage clamp | Xenopus oocytes | 0.034 ± 0.006 nM
CSCC[C@H](NC(=O)[C@H](CCCCN)NC(=O)[C@@H](NC(=O)[C@H](C)NC(=O)[C@H](CCCNC(=N)N)NC(=O)CN)[C@@H](C)O)C(=O)N[C@@H](CC(C)C)C(N)=O | Botulinum neurotoxin type A protease | enzyme activity | inhibitor |  |  | 3300 nM
COCCOc1cc(OCCOC)cc(C(=O)NCCOC(=O)[C@@H]2CCCCN2S(=O)(=O)Cc2ccccc2)c1 | Peptidyl-prolyl cis-trans isomerase (Burkholderia pseudomallei, UniProt Q63J95) | enzyme activity | inhibitor |  |  | 980 nM
Nc1nc2c(ncn2C2OC(COP(=O)(O)O)C(O)C2O)c(=O)[nH]1 (centres unmarked) | OPG122 |  |  |  |  | > 800 nM
CSCC[C@@H](C=O)NC(=O)[C@H](CC(C)C)NC(=O)[C@H](CC(C)C)NC(C)=O | Replicase polyprotein 1ab, main protease (rep, Middle East respiratory syndrome-related coronavirus, UniProt K9N7C7) | enzyme activity | inhibitor |  |  | 130 nM
COCn1cc(-c2cc(-c3cnn(C(F)F)c3)cc([C@@H](C)NC(=O)c3cc(OCCN(C)C)ccc3C)c2)cn1 | rep papain-like protease | enzyme activity | inhibitor | FRET |  | 88.2 nM
CCC(Br)C(=O)NNC(=O)c1ccccc1NC(=O)C(Br)CC (centres unmarked) | Replicase polyprotein 1ab, main protease (rep, Severe acute respiratory syndrome-related coronavirus, UniProt P0C6X7) | enzyme activity | inhibitor |  |  | 23000 nM
CSCC[C@H](NC(=O)[C@H](CCCCN)NC(=O)[C@@H](NC(=O)[C@H](C)NC(=O)[C@H](CCCNC(=N)N)NC(=O)CCc1ccccc1)[C@@H](C)O)C(=O)N[C@@H](CC(C)C)C(N)=O | Botulinum neurotoxin type A protease | enzyme activity | inhibitor |  |  | > 200000 nM
COC1C(O)C(COP(=O)(O)OP(=O)(O)OP(=O)(O)O)OC1n1cnc2c(=O)[nH]c(N)nc21 (centres unmarked) | OPG122 |  |  |  |  | 110 nM
CC[C@H](C)[C@@H]1NC(=O)[C@@H]2CSSC[C@H](NC(=O)[C@H](CCCNC(=N)N)NC(=O)[C@@H]3CSSC[C@H](NC1=O)C(=O)N[C@@H]([C@@H](C)O)C(=O)N[C@@H](CCCNC(=N)N)C(=O)NCC(=O)N[C@@H](Cc1ccccc1)C(=O)N3)C(=O)N[C@@H](C)C(=O)N[C@H]1CSSC[C@H](NC(=O)[C@H](C(C)C)NC(=O)CNC(=O)[C@H](Cc3c[nH]cn3)NC(=O)[C@H](CC(C)C)NC1=O)C(=O)N[C@@H](CCCNC(=N)N)C(=O)N2 | Lethal factor |  |  |  |  | 946 ± 47 nM
C[n+]1cn(C2OC(COP(=O)(O)OP(=O)(O)O)C(O)C2O)c2nc(N)[nH]c(=O)c21 (centres unmarked) | OPG122 |  |  |  |  | 80 nM
CSCC[C@H](NC(=O)[C@H](CCCCN)NC(=O)[C@@H](NC(=O)[C@H](C)NC(=O)[C@H](CCCNC(=N)N)NC(=O)[C@@H](N)CCC(N)=O)[C@@H](C)O)C(=O)N[C@@H](CC(C)C)C(N)=O | Botulinum neurotoxin type A protease | enzyme activity | inhibitor |  |  | 6500 nM
CC[C@H](C)[C@@H]1NC(=O)[C@H](CC(=O)O)NC(=O)[C@H]([C@@H](C)O)NC(=O)[C@@H]2CSSC[C@@H]3NC(=O)[C@H](CC(C)C)NC(=O)[C@H](CC(N)=O)NC(=O)[C@H](CC(C)C)NC(=O)[C@H](CCCNC(=N)N)NC(=O)[C@H](Cc4ccc(O)cc4)NC(=O)[C@H](CC(N)=O)NC(=O)[C@H](CCSC)NC(=O)[C@H](CO)NC(=O)[C@H]([C@@H](C)O)NC(=O)[C@H](CCCNC(=N)N)NC(=O)[C@H](CSSC[C@H](NC(=O)[C@H]([C@@H](C)O)NC(=O)[C@H](CCCCN)NC(=O)[C@H](CCCNC(=N)N)NC3=O)C(=O)NCC(=O)N[C@@H](CO)C(=O)N[C@H](C(=O)O)CSSC[C@H](NC(=O)[C@@H](NC(=O)[C@@H](N)CCCNC(=N)N)[C@@H](C)O)C(=O)N[C@@H](CCCCN)C(=O)N[C@@H](CC(=O)O)C(=O)N[C@@H](CC(C)C)C(=O)N[C@@H]([C@@H](C)CC)C(=O)N3CCC[C@H]3C(=O)N[C@@H](C(C)C)C(=O)N[C@@H](CO)C(=O)N[C@@H](CCC(=O)O)C(=O)N2)NC(=O)[C@H](CCCNC(=N)N)NC1=O | KcsA-Shaker channel | potassium current | inhibitor | two-electrode voltage clamp | Xenopus oocytes | 225 ± 37 nM
CSCC[C@H](NC(=O)[C@H](CCCCN)NC(=O)[C@@H](NC(=O)[C@H](C)NC(=O)[C@H](CCCNC(=N)N)NC(=O)[C@@H](N)Cc1ccccc1)[C@@H](C)O)C(=O)N[C@@H](CC(C)C)C(N)=O | Botulinum neurotoxin type A protease | enzyme activity | inhibitor |  |  | 8300 nM
Nc1nc2c(nc(I)n2C2OC(COP(=O)(O)OP(=O)(O)OP(=O)(O)O)C(O)C2O)c(=O)[nH]1 (centres unmarked) | OPG122 |  |  |  |  | > 800 nM
CSCC[C@H](NC(=O)[C@H](CC(C)C)NC(=O)[C@H](Cc1c[nH]c2ccccc12)NC(=O)[C@@H](CCCNC(=N)N)NC(=O)[C@@H](CCCNC(=N)N)NC(=O)[C@@H](CCCNC(=N)N)NC(=O)[C@@H](CCCNC(=N)N)NC(=O)[C@@H](CCCNC(=N)N)NC(=O)[C@@H](CCCNC(=N)N)NC(=O)[C@@H](CCCNC(=N)N)NC(=O)[C@@H](CCCNC(=N)N)NC(=O)[C@H](N)CCCNC(=N)N)C(=O)NO | Lethal factor | enzyme activity | inhibitor |  |  | 0.28 nM
CCCCCCCCOC1OC(C)C(OC2OC(C)C(OC3OC(C)C(OC4OC(C)C(OS(=O)(=O)O)C(OS(=O)(=O)O)C4OS(=O)(=O)O)C(OS(=O)(=O)O)C3OS(=O)(=O)O)C(OS(=O)(=O)O)C2OS(=O)(=O)O)C(OS(=O)(=O)O)C1OS(=O)(=O)O (centres unmarked) | Spike glycoprotein (Severe acute respiratory syndrome coronavirus 2, UniProt P0DTC2) |  |  |  |  | 1050 nM
CNc1ncnc2c1ncn2C1OC(COP(=O)(O)OP(=O)(O)OP(=O)(O)O)C(O)C1O (centres unmarked) | OPG122 |  |  |  |  | > 800 nM
Cc1ccc(OCCN(C)C)cc1C(=O)N[C@H](C)c1cc(-c2cnn(C)c2)cc(-c2ccn(C)n2)c1 | rep papain-like protease | enzyme activity | inhibitor | FRET |  | 47.1 nM

Some of these lines once more:
Compound | target | observed | action | technique | cell line | Ki
COC1C(O)C(COP(=O)(O)OP(=O)(O)OP(=O)(O)O)OC1n1cnc2c(=O)[nH]c(N)nc21 (centres unmarked) | OPG122 |  |  |  |  | 110 nM
CC[C@H](C)[C@@H]1NC(=O)[C@@H]2CSSC[C@H](NC(=O)[C@H](CCCNC(=N)N)NC(=O)[C@@H]3CSSC[C@H](NC1=O)C(=O)N[C@@H]([C@@H](C)O)C(=O)N[C@@H](CCCNC(=N)N)C(=O)NCC(=O)N[C@@H](Cc1ccccc1)C(=O)N3)C(=O)N[C@@H](C)C(=O)N[C@H]1CSSC[C@H](NC(=O)[C@H](C(C)C)NC(=O)CNC(=O)[C@H](Cc3c[nH]cn3)NC(=O)[C@H](CC(C)C)NC1=O)C(=O)N[C@@H](CCCNC(=N)N)C(=O)N2 | Lethal factor |  |  |  |  | 946 ± 47 nM
